# Experimental data from different studies.
# Compare with care: the assays were run in different laboratories. Values joined by “and” are separate records of one study, mostly repeats; a detail may differ. Numbers after ± are the reported error.
# TOP2A: DNA topoisomerase 2-alpha (TOP2A, Homo sapiens, UniProt P11388)
# UniProt P11388, sequence (whole entry, looked up): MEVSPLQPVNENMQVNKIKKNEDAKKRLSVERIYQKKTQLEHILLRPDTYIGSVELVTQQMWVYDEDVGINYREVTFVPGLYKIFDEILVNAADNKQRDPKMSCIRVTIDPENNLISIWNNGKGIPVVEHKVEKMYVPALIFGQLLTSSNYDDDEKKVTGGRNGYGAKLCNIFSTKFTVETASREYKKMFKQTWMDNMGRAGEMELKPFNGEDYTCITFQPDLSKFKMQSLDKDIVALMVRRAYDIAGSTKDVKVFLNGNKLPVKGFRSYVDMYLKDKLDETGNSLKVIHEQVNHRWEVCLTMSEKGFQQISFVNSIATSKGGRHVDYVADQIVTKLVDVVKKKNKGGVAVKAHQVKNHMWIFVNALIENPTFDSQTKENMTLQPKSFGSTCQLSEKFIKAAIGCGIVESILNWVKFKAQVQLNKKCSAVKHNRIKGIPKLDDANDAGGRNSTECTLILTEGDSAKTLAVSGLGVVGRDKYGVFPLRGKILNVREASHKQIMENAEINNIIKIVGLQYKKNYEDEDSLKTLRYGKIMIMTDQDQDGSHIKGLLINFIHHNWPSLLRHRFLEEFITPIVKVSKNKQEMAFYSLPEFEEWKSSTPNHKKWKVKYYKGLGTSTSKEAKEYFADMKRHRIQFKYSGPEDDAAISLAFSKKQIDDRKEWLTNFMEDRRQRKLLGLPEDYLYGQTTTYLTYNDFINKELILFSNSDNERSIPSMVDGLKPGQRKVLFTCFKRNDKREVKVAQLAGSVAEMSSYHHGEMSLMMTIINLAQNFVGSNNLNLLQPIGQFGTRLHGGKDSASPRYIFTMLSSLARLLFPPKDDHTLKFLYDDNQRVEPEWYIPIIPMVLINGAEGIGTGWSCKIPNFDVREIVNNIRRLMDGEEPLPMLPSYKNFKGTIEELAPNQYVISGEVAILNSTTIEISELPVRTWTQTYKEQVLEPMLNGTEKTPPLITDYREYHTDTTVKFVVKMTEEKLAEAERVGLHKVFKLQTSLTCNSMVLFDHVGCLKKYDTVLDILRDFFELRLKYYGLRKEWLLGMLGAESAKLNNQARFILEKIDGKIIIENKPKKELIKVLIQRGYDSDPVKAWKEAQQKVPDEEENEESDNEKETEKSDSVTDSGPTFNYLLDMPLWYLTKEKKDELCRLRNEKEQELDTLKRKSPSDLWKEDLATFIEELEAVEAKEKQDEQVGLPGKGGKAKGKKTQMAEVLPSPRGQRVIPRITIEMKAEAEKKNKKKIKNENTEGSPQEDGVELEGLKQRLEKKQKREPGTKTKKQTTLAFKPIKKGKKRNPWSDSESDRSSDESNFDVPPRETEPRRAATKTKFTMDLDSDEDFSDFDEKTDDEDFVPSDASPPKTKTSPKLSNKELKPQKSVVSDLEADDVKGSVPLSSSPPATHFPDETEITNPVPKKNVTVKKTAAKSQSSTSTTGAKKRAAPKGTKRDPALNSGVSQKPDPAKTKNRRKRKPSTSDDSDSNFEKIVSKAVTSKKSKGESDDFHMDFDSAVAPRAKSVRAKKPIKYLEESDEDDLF
# Dehaloperoxidase B ferric: Dehaloperoxidase B, ferric (Amphitrite ornata, UniProt Q9NAV7)
# KEAP1 Kelch domain: Kelch-like ECH-associated protein 1, Kelch domain (KEAP1, Homo sapiens, UniProt Q14145)
# UniProt Q14145, sequence (whole entry, looked up): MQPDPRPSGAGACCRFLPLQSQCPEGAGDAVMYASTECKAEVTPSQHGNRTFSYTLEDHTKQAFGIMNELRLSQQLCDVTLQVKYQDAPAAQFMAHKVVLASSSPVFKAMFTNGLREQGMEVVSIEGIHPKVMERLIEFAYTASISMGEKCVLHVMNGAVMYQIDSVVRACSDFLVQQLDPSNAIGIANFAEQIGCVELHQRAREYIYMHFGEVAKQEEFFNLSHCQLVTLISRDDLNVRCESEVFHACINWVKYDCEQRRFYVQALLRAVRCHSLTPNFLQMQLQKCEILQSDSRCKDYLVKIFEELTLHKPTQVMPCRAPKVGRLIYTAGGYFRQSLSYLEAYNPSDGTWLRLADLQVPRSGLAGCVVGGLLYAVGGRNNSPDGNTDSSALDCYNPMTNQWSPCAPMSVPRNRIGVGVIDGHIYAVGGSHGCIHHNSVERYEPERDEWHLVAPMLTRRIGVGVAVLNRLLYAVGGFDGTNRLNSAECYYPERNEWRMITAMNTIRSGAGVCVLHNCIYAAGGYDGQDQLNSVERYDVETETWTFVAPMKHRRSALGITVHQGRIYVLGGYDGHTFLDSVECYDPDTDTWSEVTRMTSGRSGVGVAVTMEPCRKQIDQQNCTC
# MT-CYB/UQCRFS1: MT-CYB/UQCRFS1 (Homo sapiens, UniProt P00156+P47985)
# UniProt P47985, sequence (whole entry, looked up): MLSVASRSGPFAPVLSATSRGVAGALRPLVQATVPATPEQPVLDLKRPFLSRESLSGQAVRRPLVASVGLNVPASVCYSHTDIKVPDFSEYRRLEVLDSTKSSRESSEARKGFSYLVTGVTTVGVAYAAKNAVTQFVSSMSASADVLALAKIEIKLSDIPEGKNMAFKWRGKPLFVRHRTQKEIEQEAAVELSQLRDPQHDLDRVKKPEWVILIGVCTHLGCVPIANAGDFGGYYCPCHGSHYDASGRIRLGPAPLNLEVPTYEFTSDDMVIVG
# UniProt P00156, sequence (whole entry, looked up): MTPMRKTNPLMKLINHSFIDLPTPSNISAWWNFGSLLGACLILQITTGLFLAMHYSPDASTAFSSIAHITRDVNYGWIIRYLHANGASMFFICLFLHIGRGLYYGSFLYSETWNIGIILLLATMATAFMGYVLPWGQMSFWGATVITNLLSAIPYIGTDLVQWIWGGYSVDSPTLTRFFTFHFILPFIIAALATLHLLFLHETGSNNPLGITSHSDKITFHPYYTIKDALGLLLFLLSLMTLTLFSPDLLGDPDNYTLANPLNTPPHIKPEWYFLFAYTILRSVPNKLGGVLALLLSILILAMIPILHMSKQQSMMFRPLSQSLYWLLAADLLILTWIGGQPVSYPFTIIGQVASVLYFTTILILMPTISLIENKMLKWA
# GUK1: GUK1 (Homo sapiens, UniProt Q16774)
# UniProt Q16774, sequence (whole entry, looked up): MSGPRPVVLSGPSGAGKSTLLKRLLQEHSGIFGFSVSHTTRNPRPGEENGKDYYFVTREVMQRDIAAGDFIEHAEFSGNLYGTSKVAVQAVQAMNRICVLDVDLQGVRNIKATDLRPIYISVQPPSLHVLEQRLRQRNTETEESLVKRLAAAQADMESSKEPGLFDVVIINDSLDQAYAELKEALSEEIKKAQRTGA
# CAMK4: Calcium/calmodulin-dependent protein kinase type IV (CAMK4, Homo sapiens, UniProt Q16566)
# UniProt Q64663, sequence (whole entry, unmodified, looked up): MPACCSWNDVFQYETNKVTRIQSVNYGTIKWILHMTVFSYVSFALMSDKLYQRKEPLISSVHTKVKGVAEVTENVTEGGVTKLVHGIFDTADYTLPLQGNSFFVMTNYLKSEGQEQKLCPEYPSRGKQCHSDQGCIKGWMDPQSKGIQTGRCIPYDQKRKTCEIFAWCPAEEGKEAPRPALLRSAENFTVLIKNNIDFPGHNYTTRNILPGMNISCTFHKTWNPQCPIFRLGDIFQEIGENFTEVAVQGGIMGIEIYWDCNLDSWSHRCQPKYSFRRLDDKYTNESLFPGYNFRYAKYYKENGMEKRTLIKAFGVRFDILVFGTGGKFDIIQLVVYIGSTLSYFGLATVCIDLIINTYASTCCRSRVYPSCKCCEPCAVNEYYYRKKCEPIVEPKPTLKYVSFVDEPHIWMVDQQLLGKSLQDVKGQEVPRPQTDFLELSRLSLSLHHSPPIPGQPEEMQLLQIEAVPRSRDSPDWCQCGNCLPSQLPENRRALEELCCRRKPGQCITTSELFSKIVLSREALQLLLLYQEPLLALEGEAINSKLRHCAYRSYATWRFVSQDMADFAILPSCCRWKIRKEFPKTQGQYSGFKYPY
# UniProt Q16566, sequence (whole entry, looked up): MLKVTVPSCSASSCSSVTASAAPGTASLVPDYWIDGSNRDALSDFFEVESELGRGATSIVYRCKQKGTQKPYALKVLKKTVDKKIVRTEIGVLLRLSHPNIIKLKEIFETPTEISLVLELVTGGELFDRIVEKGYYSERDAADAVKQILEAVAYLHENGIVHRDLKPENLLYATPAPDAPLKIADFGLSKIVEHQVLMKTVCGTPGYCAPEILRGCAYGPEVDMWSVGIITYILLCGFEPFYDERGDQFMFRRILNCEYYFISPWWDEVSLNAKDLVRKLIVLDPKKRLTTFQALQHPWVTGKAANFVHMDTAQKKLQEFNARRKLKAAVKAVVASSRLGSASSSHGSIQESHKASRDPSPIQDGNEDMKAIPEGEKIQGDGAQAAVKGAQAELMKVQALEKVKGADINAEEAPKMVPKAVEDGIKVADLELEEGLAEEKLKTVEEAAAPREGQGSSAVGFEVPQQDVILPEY
# UniProt P49653, sequence (whole entry, unmodified, looked up): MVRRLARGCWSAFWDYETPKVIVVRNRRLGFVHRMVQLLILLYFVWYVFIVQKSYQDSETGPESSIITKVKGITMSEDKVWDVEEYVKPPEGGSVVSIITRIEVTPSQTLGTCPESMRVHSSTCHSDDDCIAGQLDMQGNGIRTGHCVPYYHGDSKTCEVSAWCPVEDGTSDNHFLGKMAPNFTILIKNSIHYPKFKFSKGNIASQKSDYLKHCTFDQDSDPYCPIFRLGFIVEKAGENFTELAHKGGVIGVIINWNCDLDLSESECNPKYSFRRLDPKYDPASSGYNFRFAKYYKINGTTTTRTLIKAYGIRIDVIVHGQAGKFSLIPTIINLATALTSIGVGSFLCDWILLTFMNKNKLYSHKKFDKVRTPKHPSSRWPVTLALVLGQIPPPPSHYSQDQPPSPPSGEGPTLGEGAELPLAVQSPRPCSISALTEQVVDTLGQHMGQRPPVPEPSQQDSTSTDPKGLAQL
# UniProt P02749, sequence (whole entry, unmodified, looked up): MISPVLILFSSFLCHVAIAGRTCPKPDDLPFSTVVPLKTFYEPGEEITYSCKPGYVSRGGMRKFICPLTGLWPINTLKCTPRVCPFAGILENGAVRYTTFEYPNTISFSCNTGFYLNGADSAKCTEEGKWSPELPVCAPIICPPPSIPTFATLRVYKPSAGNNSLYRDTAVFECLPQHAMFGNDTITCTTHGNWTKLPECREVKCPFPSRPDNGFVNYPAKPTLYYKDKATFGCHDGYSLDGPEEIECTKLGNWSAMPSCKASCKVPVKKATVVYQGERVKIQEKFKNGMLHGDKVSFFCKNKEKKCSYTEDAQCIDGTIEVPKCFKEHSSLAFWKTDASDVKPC
SMILES,target,test,system,conditions,how to read,endpoint,value
O=c1nc(SCc2cc(F)cc(C(F)(F)F)c2)nc(SCc2ccc3nc(OCCN4CCOCC4)ccc3c2)[nH]1,TOP2A,DNA cleavage,,"31.25 µM, replicate 2",,linear DNA,0%
CC[C@H](C)[C@@H]1NC(=O)[C@H](C)NC(=O)[C@H]([C@@H](C)CC)NC(=O)[C@H](CCC(N)=O)NC(=O)[C@H](C)NC(=O)[C@H](CCCNC(=N)N)NC(=O)[C@H](C(C)C)NC(=O)[C@H](CC(C)C)NC(=O)[C@H](CCC(=O)O)NC(=O)[C@H](CCCNC(=N)N)NC(=O)CNC(=O)[C@@H](NC(=O)[C@H](CC(C)C)NC(=O)[C@H](CCCCN)NC(=O)[C@@H](NC(=O)[C@@H](NC(=O)[C@H](CCC(=O)O)NC(=O)[C@H](CCC(=O)O)NC(=O)[C@H](CCSC)NC(=O)[C@H](Cc2c[nH]c3ccccc23)NC(=O)[C@H](CO)NC(=O)[C@@H](N)CC(=O)O)C(C)C)[C@@H](C)CC)CSSC[C@@H]2NC(=O)[C@@H](NC(=O)[C@H](CCCCN)NC(=O)[C@H](CC(N)=O)NC(=O)[C@H](C)NC(=O)[C@H](CC(C)C)NC(=O)[C@H](C)NC(=O)[C@H](CO)NC(=O)[C@H](Cc3ccc(O)cc3)NC(=O)[C@H](CC(C)C)NC(=O)[C@H](CCC(N)=O)NC(=O)c3ccc(-c4c5ccc(=[N+](C)C)cc-5oc5cc(N(C)C)ccc45)c(C(=O)[O-])c3)CSSC[C@H](NC(=O)CNC(=O)[C@H](C(C)C)NC(=O)[C@H](Cc3c[nH]cn3)NC2=O)C(=O)N[C@@H]([C@@H](C)O)C(=O)N[C@@H](CCCCN)C(=O)N[C@@H](CCCNC(=N)N)C(=O)N[C@@H](CO)C(=O)N[C@@H](CC(C)C)C(=O)N[C@@H](C)C(=O)N[C@@H](CCCNC(=N)N)C(=O)N[C@@H](Cc2ccccc2)C(=O)N[C@H](C(=O)O)CSSC[C@@H](C(=O)NCC(=O)N[C@@H](CCSC)C(=O)N[C@@H](CO)C(=O)N[C@H](C(=O)N[C@@H](Cc2c[nH]c3ccccc23)C(=O)N[C@@H](CO)C(=O)O)[C@@H](C)O)NC1=O,"Relaxin receptor 1 (RXFP1, Homo sapiens, UniProt Q9HBX9, F76A/Y80A)",NanoBRET dissociation,,"infinite dilution, added: 10 nM relaxin",,koff fast phase,0.00852 s⁻¹
O=C1Nc2ccc(Br)cc2C1=O,Dehaloperoxidase B ferric,"product, HPLC",,"added: 5-bromoindole 500 µM, H2O2 100 µM",,share of total products,3.1%
CC[C@H](C)[C@H](NC(=O)[C@@H]1CCCN1C(=O)[C@H](CC(C)C)NC(=O)[C@H](Cc1ccccc1)NC(=O)[C@H](CCC(=O)O)NC(=O)CNC(=O)[C@@H](NC(=O)[C@H](CCC(=O)O)NC(=O)[C@H](CCC(=O)O)NC(=O)[C@H](CC(=O)O)NC(=O)[C@H](CC(C)C)NC(=O)[C@H](CCC(N)=O)NC(=O)[C@H](CC(C)C)NC(=O)[C@H](CCC(N)=O)NC(=O)[C@H](C)NC(=O)[C@H](Cc1ccccc1)NC(C)=O)[C@@H](C)O)C(=O)N[C@@H](CCC(N)=O)C(=O)N1CCC[C@H]1C(=O)N[C@@H](C)C(=O)N[C@@H](CCC(N)=O)C(N)=O,KEAP1 Kelch domain,"binding, ITC",,"pH 7, 298.15 K",,ΔG,-10.38 ± 0.03 kcal/mol
[H]/N=C(/N)NCC(=O)O,"Sodium- and chloride-dependent taurine transporter (SLC6A6, Homo sapiens, UniProt P31641, L306A)","binding, microscale thermophoresis",,"125 µM, room temperature, added: 50 nM labelled protein",higher = more binding,normalised MST signal,-0.0331
CCNC(=O)/C=C/c1cccc(Br)c1,"Sodium-dependent neutral amino acid transporter B(0)AT1 (SLC6A19, Homo sapiens, UniProt Q695T7)","inhibitor, L-[14C]leucine uptake",CHO-BC cells,"0.1 µM, 6 min, unit not given, added: GPNA 3 mM, JPH203 3 µM",baseline: uninhibited cells,remaining transport activity,0.924
Cc1cc(CN=C(N)NC(N)=S)c(C)cc1CN=C(N)NC(N)=S,"Protein lin-28 homolog A (Mus musculus, UniProt Q8K3Y3)",,,,,Hill slope,-2.3
CN(C)C(=O)C(CCN1CCC(O)(c2ccc(Cl)cc2)CC1)(c1ccccc1)c1ccccc1,"Calcium-activated potassium channel subunit alpha-1, with LRRC26 γ1 subunit (KCNMA1, Homo sapiens, UniProt Q12791)","BK current, inhibitor, inside-out patch clamp",excised membrane patch,"3 µM, γ1 coexpressed, individual fits, added: nominally 0 Ca2+ cytosolic",baseline: without loperamide,normalized Gmax,0.456 ± 0.055
Nc1ncnc2c1ncn2[C@@H]1O[C@H](COP(=O)(O)OP(=O)(O)NP(=O)(O)O)[C@@H](O)[C@H]1O,"Cell cycle histidine kinase CckA, CA domain (Caulobacter vibrioides, UniProt Q9X688)",isothermal titration calorimetry,Caulobacter crescentus,"concentration not given, 12 °C, added: c-di-GMP 100 µM",,binding enthalpy (ΔH),-2.4 kcal/mol
Cc1nc2ccc(CN(C)c3ccc(C(=O)N[C@@H](CCC(=O)O)C(=O)O)s3)cc2c(=O)[nH]1,"Thymidylate synthase (TYMS, Homo sapiens, UniProt P04818)",from literature Kd,,,,binding efficiency index,16
Nc1ncnc2c1ncn2[C@@H]1O[C@H](COP(=O)(O)OP(=O)(O)OP(=O)(O)O)[C@@H](O)[C@H]1O,"P2X purinoceptor 7 (P2rx7, Rattus norvegicus, UniProt Q64663, I214G)","ion current, agonist, two-electrode voltage clamp",Xenopus laevis oocytes,2700 µM,baseline: highest concentration response,normalized current,1
O=c1nc(SCc2cc(F)cc(C(F)(F)F)c2)nc(SCc2ccc3nc(Cl)ccc3c2)[nH]1,TOP2A,DNA relaxation,,"31.25 µM, replicate 1",,relaxed DNA,96.7%
NC(=O)NOCCCCCCCCCCCC[P+](c1ccccc1)(c1ccccc1)c1ccccc1.O=C([O-])C(F)(F)F,MT-CYB/UQCRFS1,"complex III-dependent respiration, Seahorse XF96",HCT-116,"1 µM, 24 h",baseline: control,oxygen consumption rate,92.1 ± 11.1%
CO[C@H]1O[C@H](COS(=O)(=O)O)[C@@H](O[C@@H]2O[C@@H](C(=O)O)[C@@H](O[C@H]3O[C@H](COS(=O)(=O)O)[C@@H](O[C@@H]4O[C@H](C(=O)O)[C@@H](O[C@H]5O[C@H](COS(=O)(=O)O)[C@@H](O)[C@H](O)[C@H]5NS(=O)(=O)O)[C@H](O)[C@H]4O)[C@H](OS(=O)(=O)O)[C@H]3NS(=O)(=O)O)[C@H](O)[C@H]2OS(=O)(=O)O)[C@H](O)[C@H]1NS(=O)(=O)O,"Beta-2-glycoprotein 1, domain V (APOH, Homo sapiens, UniProt P02749, V266L)",isothermal titration calorimetry,,"298 K, added: 50 mM NaCl",,binding free energy ΔG,-7.32 kcal/mol
CCN1CCC[C@H]1CNC(=O)c1c(O)c(Cl)cc(Cl)c1OC,"G-protein coupled receptor 62 (GPR62, Homo sapiens, UniProt Q9BZJ7)","β-arrestin recruitment, TANGO luminescence, refers to: GPR62",,concentration not given,baseline: basal luminescence,log2 fold change,0.415
O=S(=O)(O)O,GUK1,"enzyme activity, NADH-coupled",,"5 mM, added: ATP 2000 µM",,reaction velocity,0.116 µM/s and 0.123 µM/s and 0.135 µM/s
CC[C@@H]1[C@H](F)C(=O)N[C@@H]1COc1nccc2cc(C(N)=O)c(OC)cc12,CAMK4,"ATP-site probe binding, ActivX profiling",THP-1 cell lysate,"0.01 mM, Lys2 site",,inhibition,25.8%
CC[C@H](C)[C@H](NC(=O)[C@@H]1CCCN1C(=O)[C@H](CC(C)C)NC(=O)[C@H](Cc1ccccc1)NC(=O)[C@H](CCC(=O)O)NC(=O)CNC(=O)[C@@H](NC(=O)[C@H](CCC(=O)O)NC(=O)[C@@H]1CCCN1C(=O)[C@H](CC(=O)O)NC(=O)[C@H](CC(C)C)NC(=O)[C@H](CCC(N)=O)NC(=O)[C@H](CC(C)C)NC(=O)[C@H](CCC(N)=O)NC(=O)[C@H](C)NC(=O)[C@H](Cc1ccccc1)NC(C)=O)[C@@H](C)O)C(=O)N[C@@H](CCC(N)=O)C(=O)N1CCC[C@H]1C(=O)N[C@@H](C)C(=O)N[C@@H](CCC(N)=O)C(N)=O,KEAP1 Kelch domain,ITC,,concentration not given,,binding stoichiometry,1.04
C=CC(=O)N1CCC(COCC(=O)N2CCN(c3nc(-c4cnc(N)nc4C(F)F)nc(N4CCOC[C@@H]4C)n3)CC2)CC1,"Cyclin-dependent kinase 15 (CDK15, Homo sapiens, UniProt Q96Q40)",KINOMEscan,,1 µM,,remaining binding,95%
N[C@H](COP(=O)(O)O)Cc1c[nH]cn1,Beta1,"substrate, coupled phosphate release",,,,Km,21 ± 5 µM
Brc1ccc2[nH]ccc2c1,Dehaloperoxidase B ferric,"peroxidase activity, substrate, HPLC",,"10 µM, 5 min, pH 7, added: H2O2, enzyme 500 µM",,substrate conversion,48.1%
COc1cc(O)c2c(c1)oc(=O)c1c3cc(O)c(O)cc3oc21,"Alpha-glucosidase MAL12 (MAL12, Saccharomyces cerevisiae S288c, UniProt P53341)",fluorescence quenching,,307 K,,ΔH,-25 kcal/mol
COc1cc(-c2cc(C(C)=O)n3ccccc23)c(OC)cc1Cn1ccnc1,"Peregrin (BRPF1, Homo sapiens, UniProt P55201)",,,,,ΔTm,-0.5 °C
C=CC(=O)NCc1cccc(CN(C(=O)Nc2cccc(C(F)(F)F)c2)C2CCN(C(C)CCC)CC2)c1 (centres unmarked),"DCN1-like protein 1 (Homo sapiens, UniProt Q96GG9)","covalent binder, LC-TOF mass spectrometry",,"60 µM, overnight, 4 °C, added: DCN1-like protein 1 30 µM",,covalent adduct formation,0%
Nc1ncnc2c1ncn2[C@@H]1O[C@H](COP(=O)(O)OP(=O)(O)OP(=O)(O)O)[C@@H](O)[C@H]1O,"P2X purinoceptor 2 (P2rx2, Rattus norvegicus, UniProt P49653, K308A/K69A)",agonist,cells expressing K308A-K69A-WT concatemer,,,Hill coefficient,1.4 ± 0.2
Cc1cc(NS(=O)(=O)c2ccc(N=NN(O)c3ccccc3)cc2)no1,"α-glucosidase, rat intestine",enzyme activity,,"180 µg/mL, added: 4-nitrophenyl α-D-glucopyranoside",,inhibition,42.5 ± 0.59%
COc1cc(-c2cncc3c2CN(C)Cc2cc(N4CCNCC4)ccc2-3)cc(OC)c1OC,CAMK4,kinase activity,,"1 µM, human enzyme, added: ATP 10 µM",baseline: DMSO control,remaining activity,107%
CCCN(O)N=Nc1ccc(S(=O)(=O)Nc2onc(C)c2C)cc1,"α-glucosidase, rat intestine",enzyme activity,,"240 µg/mL, added: 4-nitrophenyl α-D-glucopyranoside",,inhibition,52.5 ± 0.01%
CCC1(O)CCCN(C(=O)c2ccc(-c3ccc(F)c(NC(=O)CCl)c3)cc2)C1 (centres unmarked),"DNA dC->dU-editing enzyme APOBEC-3B, C-terminal domain (Homo sapiens, UniProt Q9UH17)","covalent modifier, intact protein mass spectrometry, refers to: adduct +25721 Da",,"125 µM, 1 h, 5-fold molar excess",,protein adduct,42%
Nc1nc2c(ncn2[C@@H]2O[C@H](COP(=O)(O)O)[C@@H](O)[C@H]2O)c(=O)[nH]1,GUK1,"enzyme activity, NADH-coupled",,"15.62 µM, added: NaCl 150 mM",,reaction velocity,0.0342 µM/s and 0.0278 µM/s and 0.0459 µM/s
COc1cc(/C=C/c2ccc(O)cc2)cc(OC)c1,"O-methyltransferase (Sorghum bicolor, UniProt A0A1B6PFV1)",,,"concentration not given, added: SAH+",,ΔH of binding,-10.2 ± 0.154 kcal/mol
CC(=C/C(=O)O)/C=C/C=C(\C)C1C=C2C(C)(C)CCCC2(C)O1 (centres unmarked),"Rhodopsin (RHO, Homo sapiens, UniProt P08100, P23H)","immunostaining, refers to: opsin",COS-7 transfected,"0.05 µM, unit not given",baseline: surface over total stained cells,plasma membrane localization,0
O=C1C=Nc2ccc(Br)cc21,Dehaloperoxidase B ferric,"product, HPLC",,"5 min, pH 7, 25 °C, enzyme 10 µM, added: 5-bromoindole and H2O2 500 µM each",,product formed,118 M
NC(=O)NOCCCCCCCCCCCCCCCCCCCC[P+](c1ccccc1)(c1ccccc1)c1ccccc1.O=C([O-])C(F)(F)F,MT-CYB/UQCRFS1,"complex III-dependent respiration, Seahorse XF96",HCT-116,"0.3 µM, 24 h",baseline: control,oxygen consumption rate,108%
CCCCC[S+]([O-])c1n[nH]c(N)n1 (centres unmarked),"YTH domain-containing family protein 2 (YTHDF2, Homo sapiens, UniProt Q9Y5A9)","binding, affinity selection mass spectrometry",,,baseline: other proteins in batch,log fold enrichment,0.173

# For quick reference, copied from above:
SMILES,target,test,system,conditions,how to read,endpoint,value
CCCCC[S+]([O-])c1n[nH]c(N)n1 (centres unmarked),"YTH domain-containing family protein 2 (YTHDF2, Homo sapiens, UniProt Q9Y5A9)","binding, affinity selection mass spectrometry",,,baseline: other proteins in batch,log fold enrichment,0.173
COc1cc(O)c2c(c1)oc(=O)c1c3cc(O)c(O)cc3oc21,"Alpha-glucosidase MAL12 (MAL12, Saccharomyces cerevisiae S288c, UniProt P53341)",fluorescence quenching,,307 K,,ΔH,-25 kcal/mol
CO[C@H]1O[C@H](COS(=O)(=O)O)[C@@H](O[C@@H]2O[C@@H](C(=O)O)[C@@H](O[C@H]3O[C@H](COS(=O)(=O)O)[C@@H](O[C@@H]4O[C@H](C(=O)O)[C@@H](O[C@H]5O[C@H](COS(=O)(=O)O)[C@@H](O)[C@H](O)[C@H]5NS(=O)(=O)O)[C@H](O)[C@H]4O)[C@H](OS(=O)(=O)O)[C@H]3NS(=O)(=O)O)[C@H](O)[C@H]2OS(=O)(=O)O)[C@H](O)[C@H]1NS(=O)(=O)O,"Beta-2-glycoprotein 1, domain V (APOH, Homo sapiens, UniProt P02749, V266L)",isothermal titration calorimetry,,"298 K, added: 50 mM NaCl",,binding free energy ΔG,-7.32 kcal/mol
COc1cc(/C=C/c2ccc(O)cc2)cc(OC)c1,"O-methyltransferase (Sorghum bicolor, UniProt A0A1B6PFV1)",,,"concentration not given, added: SAH+",,ΔH of binding,-10.2 ± 0.154 kcal/mol
